Experimental data gathered from unrelated publications.
“And” joins repeats or separate records; there may be more than shown. ± marks the error that the study gave.

CCCc1n(Cc2ccc3ccccc3n2)cc[n+]1Cc1ccc2ccccc2n1 — growth (NSCLC cell lines; NCI60 one-dose; 10 µM, average over cell lines): 25 to 31.8%
Cn1cc(Nc2nccc(-c3ccc4c(c3)CN(C3COC3)CC[C@H]4NC(=O)c3cn(C(C)(C)C)nn3)n2)cn1 — pathway activation z-score (mouse splenic B cells; measured: GM-CSF signalling; 30 mg/kg, IgD-activated in vivo; reference: vehicle, direction not given): 1.39
CC(C)(C)C(=O)N1N=CC[C@H]1c1ccccc1 — necroptosis (L929; ATP viability; concentration not given, added: poly(I:C) and zVAD): no effect
C=CC1=C(C)c2cc3[n-]c(cc4nc(cc5[n-]c(cc1n2)c(C)c5C=C)C(C)=C4CCC(=O)O)c(CCC(=O)O)c3C.[Zn+2] — fold change (SH-SY5Y; RNA-seq, measured: SLC12A8 mRNA; 5 µM, 5 h; reference: untreated cells): 2.23
Cc1cc(NC(=O)c2cccc(NC(=O)/C=C/CN(C)C)c2)ccc1Nc1nccc(-c2cccnc2)n1 — reporter activity (AP1 reporter HEK293; AP1 reporter gene, inhibitor; 10 µM, 6 h, compound kept in medium, unit not given, added: PMA; reference: PMA alone): 0.187
O=C(/C=C/C=C/C=C/C1CCCCC1)NC1=C[C@@](O)(/C=C/C=C/C=C/C(=O)NC2=C(O)CCC2=O)[C@@H]2O[C@@H]2C1=O — GI50 (Lu-99; cell growth, CellTiter-Glo; 78 h): 8.95 µM
COc1ccc(-c2coc3cc(O)cc(O)c3c2=O)cc1 — TEER (Caco-2 monolayers; 100 µg/mL, 15 min; reference: 0 min value): ≤ 120%
CCn1cc(-c2cc(Cn3ccnc3)cc3c2CCN([C@H](c2cc(OC)ccn2)C2CC2)C3=O)c(C(F)(F)F)n1 — EC50 (ARH-77; cell growth, inhibitor; 120 h): > 30 µM
CCCCN1C[C@H](O)[C@@H](O)[C@@H](O)[C@H]1CO — IC50 (sample G patient fibroblasts; Gb3 level lowering, LC-MS/MS, measured: Gb3 d18:1/16:0; 216 h): 11.1 µM
COc1ncccc1CN[C@@H]1C[C@H]1c1ccccc1 (racemic) — GI50 (THP-1 wild type cells; MTS; 72 h): > 50 µM
Cc1ccc(CNC(=O)Cn2cc(CSc3nc4ccccc4[nH]3)nn2)cc1 — viability (Caco-2; MTT; 7.81 ppm): 50.7%
CC1(C)CCC(CN2CCN(c3ccc(C(=O)NS(=O)(=O)c4ccc(NCC5CCOCC5)c([N+](=O)[O-])c4)c(Oc4cnc5[nH]ccc5c4)c3)CC2)=C(c2ccc(Cl)cc2)C1 — early apoptotic cells (THP-1; annexin V/PI flow cytometry, measured: annexin V+/PI-; 3.2 µM, 24 h): 9.8%
Cc1nn(-c2nc3ccc(Cl)c(Cl)c3[nH]2)c(O)c1C1OC(=O)c2ccccc21 (centres unmarked) — phospho-TBK1/TBK1 ratio (RAW-ISG; western blot; 10 µM, added: HT-DNA; reference: vehicle): 0.756 and 1.14 and 0.79
c1cnc2c(c1)ccc1cccnc12 — IL-1β mRNA level (HEK293T; 25 µg/mL; reference: albendazole): decreased
C=CC(=O)Nc1cccc(Oc2nc(Nc3ccc(N4CCN(C)CC4)cc3)nc3ccoc23)c1 — maximum inhibition (TMD8 wild-type; calcium flux, FLIPR; 4 h preincubation, added: anti-IgM): 45.5%
CCCc1n(Cc2ccc3ccccc3n2)cc[n+]1Cc1ccc2ccccc2c1.[Cl-] — TGI (NSCLC cell lines; lower end of range): ≥ 0.671 µM
O=c1c2ccccc2[se]n1-c1ccccc1 — AC50 (differentiated LUHMES MT1G-HiBiT neurons; measured: MT1G; 24 h): 1.2 µM
CN(C)c1ccccc1CN1CCCN(Cc2ccccc2N(C)C)C1c1ccncc1 — inhibition (Sufu-/- mouse embryonic fibroblasts; qRT-PCR, measured: Ptch1 mRNA; 10 µM; reference: DMSO): ~50%
CC(C)(c1ccc(O)cc1)c1ccc(O)cc1 — G2 phase cells (HepG2 spheroids; Hoechst flow cytometry; 40 µM, 24 h): 19.1 ± 4.13%
CCCCCCOC(=O)[C@]1(O)C[C@@H]2O[C@@]1(C)n1c3ccccc3c3c4c(c5c6ccccc6n2c5c31)C(=O)NC4 — relative cell number (SK-OV-3; ATP; 2D monolayer culture; 0.1 µM, 4 days; reference: untreated): 131%
COc1cc(/C=C/C(=O)N2CCC=CC2=O)cc(OC)c1OC — mRNA level (MDA-MB-468; qRT-PCR, measured: ANPEP; 30 µM, 6 h; reference: time zero): 72 ± 8%
COC(=O)c1ccc2c(c1)n(Cc1ccc3ccccc3c1)c[n+]2Cc1ccc2ccccc2c1 — mean growth percentage (NSCLC cell lines; NCI60 one-dose screen; 10 µM): 45.2%
Cc1cc(Nc2ncc(Cl)c(Nc3ccccc3S(=O)(=O)C(C)C)n2)c(OC(C)C)cc1C1CCNCC1 — log2 fold change (CLB-GE; phosphoproteomics LC-MS/MS, measured: CCT2 phosphorylation; 200 nM, 60 min; reference: untreated): -3.02
COC(=O)c1cc2c(cc1C(=O)OC)[n+](Cc1ccc3ccccc3c1)cn2Cc1ccc2ccccc2c1 — mean growth percentage (NSCLC cell lines; NCI60 one-dose screen; 10 µM): 87%
CCOc1cc([C@@H](CS(C)(=O)=O)N2C(=O)c3cccc(NC(C)=O)c3C2=O)ccc1OC — cAMP level difference (PBMC; MSD; 0.001 µM, unit not given, added: PGE2; reference: DMSO): -1.82
Cn1cc(-c2ccc(-c3cncc(Cl)c3N3CCC4(CCNC4=O)CC3)cc2)cn1 — log2 fold change (COLO 205; gene expression, microarray, measured: FGFR3 mRNA; concentration not given, 2 h; reference: untreated cells): 3.53
Nc1cccc2c1C(=O)N(C1CCC(=O)NC1=O)C2=O (centres unmarked) — viability (bone marrow CD138+ myeloma cells; XTT; 3 µM, phenol red-free RPMI): 4%
COc1cnc2cccc(N3CCc4c(cc(Cn5ccnc5C)cc4-c4cn(C)nc4C(F)(F)F)C3=O)c2c1 — EC50 (SCC-25; cell growth, inhibitor; 120 h): 14.8 µM
C=CC(=O)N1CCC([C@@H]2CCNc3c(C(N)=O)c(-c4ccc(Oc5ccccc5)cc4)nn32)CC1 — maximum inhibition (TMD8 wild-type; calcium flux, FLIPR; 2 h preincubation, added: anti-IgM): 87.1%
CCn1cc(-c2cc(Cn3ccoc3=N)cc3c2CCN([C@@H](C)c2cc(OC)ccn2)C3=O)c(C(F)(F)F)n1 — EC50 (SCC-25; cell growth, inhibitor; 120 h): 0.163 µM
CCOC(=O)/C=C/C(=O)N(CC(C)C)NC(=O)[C@H](CC(C)C)NC(=O)[C@H](CC(C)C)NC(=O)OCc1ccccc1 — viability decrease (L-363; MTS; 10 µM, 72 h): 32%
N#Cc1ccc(Oc2ccc3c(c2)COB3O)cc1 — cAMP level difference (PBMC; MSD; 0.01 µM, unit not given, added: PGE2; reference: DMSO): -2.9
COc1ccc(-n2nc(C(C)=O)s/c2=N\N=C(/C)c2ccc(NC(=O)c3ccccc3)cc2)cc1 — viability (MCF7; 1.25 µM): 2.72%
c1ccc2[nH]ccc2c1 — mRNA level, LS mean (HCT-8; RNA-seq, measured: DDIT3; concentration not given): 13.2 counts per million
CC(C)NCC(O)c1ccc(O)c(O)c1 (centres unmarked) — sarcomere length (mouse ventricular cardiomyocytes; dose not given, 0.335 s): 1.8 µm
Cc1cc(Nc2ncc(Cl)c(Nc3ccccc3S(=O)(=O)C(C)C)n2)c(OC(C)C)cc1C1CCNCC1 — Emax (Ba/F3 EML4-ALK v3; cell viability): 99.6%
COc1cccc2c1C(=O)c1c(O)c3c(c(O)c1C2=O)C[C@@](O)(C(=O)CO)C[C@@H]3O[C@H]1C[C@H](N)[C@H](O)[C@H](C)O1 — point of departure (HepG2; measured: glutathione; 6 h, representative mode): 0.00437 µM
Cc1c(C)c2c(c(C)c1O)CCC(C)(COc1ccc(CC3SC(=O)NC3=O)cc1)O2 (centres unmarked) — IC50 (hepatocytes, iPSC-derived, line W3; cell viability, RealTime-Glo MT; 48 h, differentiation day 23): 95 µM
CCCCc1nc(Cl)c(CO)n1Cc1ccc(-c2ccccc2-c2nn[nH]n2)cc1 — log2 fold change (human PBMC; RNA-seq, measured: MS4A6A mRNA; 10 µg/mL, 24 h; reference: untreated control): -3.82
O=c1[nH]nc(OCCCc2ccc(Cl)cc2)c(NCc2cccnc2)c1Br — log2 fold change (HEK293T; RNA-seq, measured: CARS mRNA; 10 µM, 6 h; reference: vehicle): 0.763
CCN(CC)S(=O)(=O)Nc1cccc(-c2ccc3c(NC(=O)C4CC4)n[nH]c3c2)c1 — LRP6-positive cells (HEK293T; flow cytometry, measured: surface LRP6; concentration not given, 8 h, added: WNT3A): 63.2%
COc1cc2ncnc(Nc3ccc(Oc4ccccc4)c(C)c3C)c2cc1OC — viability (LoVo (KRAS G13D); resazurin; 0.1 µM, 72 h, added: trametinib 0 nM): 90.4%
Clc1nc(NCc2ccco2)c2[nH]cnc2n1 — ΔPSI (FD iPSC-derived cardiomyocytes; alternative splicing, RNA-seq, measured: C17orf53 exon chr17:44150960-44151044; unit not given; reference: DMSO minus compound): -0.201
CC/C(=N\NC(=O)NCc1cccc(O)c1)c1ccc(O)c(C)c1O — log ratio (SK-OV-3; gene expression, microarray, measured: DKK1; 10 µM, 24 h; reference: DMSO): 4.04
CCOc1ccc(N([C@@H](C)C(=O)Nc2ccc(Br)c(C)c2)S(C)(=O)=O)cc1 — maximum inhibition (MEF with TRE-FLAG-LMNB1; LMNB1 level, high-content screening; 250 µM): 19%
COc1cc(OC)c2c(=O)[nH]c(-c3cc(C)c(OCCO)c(C)c3)nc2c1 — log2 fold change (murine AML cells; BRD4 chromatin occupancy, ChIP-seq, measured: Ift57 locus; concentration not given; reference: DMSO): 0.13
COc1cc(C(=O)O[C@@H]2CCCOc3cc(cc(OC)c3OC)C(=O)NCCCN3CCCN(CC2)CC3)cc(OC)c1OC — granzyme B spot count (CMV-specific PBMC; FluoroSpot; concentration not given, added: ATP, NLVPMVATV peptide restimulation; reference: control without ATP): 108% and 59.4% and 81.1%

Repeated from above:
COc1ccc(-c2coc3cc(O)cc(O)c3c2=O)cc1 — TEER (Caco-2 monolayers; 100 µg/mL, 15 min; reference: 0 min value): ≤ 120%
CCn1cc(-c2cc(Cn3ccnc3)cc3c2CCN([C@H](c2cc(OC)ccn2)C2CC2)C3=O)c(C(F)(F)F)n1 — EC50 (ARH-77; cell growth, inhibitor; 120 h): > 30 µM
CCCCN1C[C@H](O)[C@@H](O)[C@@H](O)[C@H]1CO — IC50 (sample G patient fibroblasts; Gb3 level lowering, LC-MS/MS, measured: Gb3 d18:1/16:0; 216 h): 11.1 µM
COc1ncccc1CN[C@@H]1C[C@H]1c1ccccc1 (racemic) — GI50 (THP-1 wild type cells; MTS; 72 h): > 50 µM
Cc1ccc(CNC(=O)Cn2cc(CSc3nc4ccccc4[nH]3)nn2)cc1 — viability (Caco-2; MTT; 7.81 ppm): 50.7%
